# Published values collected from several papers.
# A part holds a random share of what one study measured. “And” joins repeats or separate records; there may be more than shown.
# Chain of UniProt P07550 (whole entry, looked up): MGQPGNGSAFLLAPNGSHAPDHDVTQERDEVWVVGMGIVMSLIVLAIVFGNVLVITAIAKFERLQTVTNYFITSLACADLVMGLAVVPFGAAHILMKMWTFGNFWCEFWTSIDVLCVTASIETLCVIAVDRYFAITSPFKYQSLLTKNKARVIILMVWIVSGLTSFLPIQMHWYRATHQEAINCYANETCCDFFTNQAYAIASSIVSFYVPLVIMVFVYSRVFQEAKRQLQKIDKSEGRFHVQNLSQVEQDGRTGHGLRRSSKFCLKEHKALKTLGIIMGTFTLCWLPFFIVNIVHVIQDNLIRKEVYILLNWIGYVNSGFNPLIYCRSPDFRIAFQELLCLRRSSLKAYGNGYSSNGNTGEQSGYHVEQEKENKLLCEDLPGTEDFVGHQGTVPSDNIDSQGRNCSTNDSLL
# Chain of UniProt Q9Y5N1 (whole entry, looked up): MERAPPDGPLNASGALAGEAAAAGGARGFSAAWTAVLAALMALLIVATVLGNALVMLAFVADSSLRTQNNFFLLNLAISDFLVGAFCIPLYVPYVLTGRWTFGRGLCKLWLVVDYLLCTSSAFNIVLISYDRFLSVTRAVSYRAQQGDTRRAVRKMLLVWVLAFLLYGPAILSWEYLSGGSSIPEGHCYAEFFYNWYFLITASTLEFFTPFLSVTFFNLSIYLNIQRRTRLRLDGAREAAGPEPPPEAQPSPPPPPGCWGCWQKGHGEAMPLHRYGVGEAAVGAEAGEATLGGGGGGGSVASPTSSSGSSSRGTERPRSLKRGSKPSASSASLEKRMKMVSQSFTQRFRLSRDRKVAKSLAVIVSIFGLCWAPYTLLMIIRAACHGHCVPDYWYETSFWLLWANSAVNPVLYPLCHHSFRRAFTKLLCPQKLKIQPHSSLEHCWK
# Chain of UniProt P18089 (whole entry, looked up): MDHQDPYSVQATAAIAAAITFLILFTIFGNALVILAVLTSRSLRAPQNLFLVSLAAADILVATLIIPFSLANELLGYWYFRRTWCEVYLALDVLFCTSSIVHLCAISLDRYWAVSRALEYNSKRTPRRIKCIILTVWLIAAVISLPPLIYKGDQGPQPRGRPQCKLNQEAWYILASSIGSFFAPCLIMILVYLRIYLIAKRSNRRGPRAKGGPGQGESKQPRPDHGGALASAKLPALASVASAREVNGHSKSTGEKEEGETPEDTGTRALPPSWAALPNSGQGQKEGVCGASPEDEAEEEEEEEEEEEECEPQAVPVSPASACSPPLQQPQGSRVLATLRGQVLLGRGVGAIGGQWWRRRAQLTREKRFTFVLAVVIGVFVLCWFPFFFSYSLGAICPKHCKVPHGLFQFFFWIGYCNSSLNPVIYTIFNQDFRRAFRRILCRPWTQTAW
# Chain of UniProt P18825 (whole entry, looked up): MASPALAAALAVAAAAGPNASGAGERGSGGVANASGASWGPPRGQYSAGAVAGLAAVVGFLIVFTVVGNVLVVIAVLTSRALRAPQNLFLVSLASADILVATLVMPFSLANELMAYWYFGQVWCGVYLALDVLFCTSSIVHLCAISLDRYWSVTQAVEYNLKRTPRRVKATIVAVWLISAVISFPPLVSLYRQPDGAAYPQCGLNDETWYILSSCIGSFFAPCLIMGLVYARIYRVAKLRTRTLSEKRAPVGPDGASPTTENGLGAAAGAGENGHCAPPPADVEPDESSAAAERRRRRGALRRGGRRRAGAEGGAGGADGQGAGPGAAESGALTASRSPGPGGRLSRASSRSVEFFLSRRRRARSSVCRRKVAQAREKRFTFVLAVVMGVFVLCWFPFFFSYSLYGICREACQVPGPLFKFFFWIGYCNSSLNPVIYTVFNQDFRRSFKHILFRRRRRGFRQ
# Chain of UniProt P25100 (whole entry, looked up): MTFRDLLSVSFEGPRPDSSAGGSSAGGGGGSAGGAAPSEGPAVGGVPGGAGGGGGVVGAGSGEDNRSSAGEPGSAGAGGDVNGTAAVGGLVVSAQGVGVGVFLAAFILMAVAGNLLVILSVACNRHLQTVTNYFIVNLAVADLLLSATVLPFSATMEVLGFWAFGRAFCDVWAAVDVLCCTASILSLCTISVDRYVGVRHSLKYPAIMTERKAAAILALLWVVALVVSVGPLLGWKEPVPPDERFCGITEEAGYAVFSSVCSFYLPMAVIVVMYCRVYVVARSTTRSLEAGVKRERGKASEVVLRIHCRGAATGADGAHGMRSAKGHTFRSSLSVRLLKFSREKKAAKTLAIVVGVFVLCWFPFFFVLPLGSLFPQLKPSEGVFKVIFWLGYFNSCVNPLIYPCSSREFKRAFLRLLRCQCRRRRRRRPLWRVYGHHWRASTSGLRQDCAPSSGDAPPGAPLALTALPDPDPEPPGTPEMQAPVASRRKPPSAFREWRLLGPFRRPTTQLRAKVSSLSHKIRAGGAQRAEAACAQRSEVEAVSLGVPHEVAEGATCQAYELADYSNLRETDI
# Chain of UniProt P08172 (whole entry, looked up): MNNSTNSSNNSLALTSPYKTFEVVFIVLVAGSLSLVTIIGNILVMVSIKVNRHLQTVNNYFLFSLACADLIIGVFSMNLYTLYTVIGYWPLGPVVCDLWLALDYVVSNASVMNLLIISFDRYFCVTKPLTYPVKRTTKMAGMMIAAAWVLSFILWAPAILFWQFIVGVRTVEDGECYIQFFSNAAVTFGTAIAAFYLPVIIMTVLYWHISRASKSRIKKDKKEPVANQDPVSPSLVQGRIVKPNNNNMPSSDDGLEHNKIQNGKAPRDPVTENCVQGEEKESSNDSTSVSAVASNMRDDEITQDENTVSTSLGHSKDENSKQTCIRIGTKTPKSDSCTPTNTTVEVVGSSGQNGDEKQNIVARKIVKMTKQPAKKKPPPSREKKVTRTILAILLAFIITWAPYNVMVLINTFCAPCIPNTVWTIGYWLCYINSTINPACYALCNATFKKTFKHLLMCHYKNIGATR
# Chain of UniProt Q9H3N8 (whole entry, looked up): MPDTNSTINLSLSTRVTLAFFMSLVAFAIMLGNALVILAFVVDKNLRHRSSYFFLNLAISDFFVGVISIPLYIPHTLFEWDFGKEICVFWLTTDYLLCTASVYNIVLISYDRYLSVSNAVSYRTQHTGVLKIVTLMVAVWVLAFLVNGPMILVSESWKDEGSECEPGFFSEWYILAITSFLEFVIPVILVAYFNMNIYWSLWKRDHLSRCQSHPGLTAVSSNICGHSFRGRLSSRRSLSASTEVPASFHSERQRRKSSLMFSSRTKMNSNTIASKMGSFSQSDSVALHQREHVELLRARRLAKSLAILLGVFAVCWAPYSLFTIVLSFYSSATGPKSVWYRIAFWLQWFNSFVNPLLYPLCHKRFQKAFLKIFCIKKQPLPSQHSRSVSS
# Chain of UniProt Q5BJF2 (whole entry, looked up): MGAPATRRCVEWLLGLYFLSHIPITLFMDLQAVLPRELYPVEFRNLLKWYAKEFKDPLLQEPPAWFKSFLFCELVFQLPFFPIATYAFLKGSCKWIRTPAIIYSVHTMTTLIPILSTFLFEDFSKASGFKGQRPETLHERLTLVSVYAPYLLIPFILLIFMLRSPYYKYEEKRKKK

# Sample 1
# Host: human
# Matrix: microsomes or S9
# Tested at: 2 µM
# Time: 0.5 h
SMILES,remaining compound [%]
COc1cc(C2c3c(-c4ccccc4)nn(C)c3C(=O)N2Cc2ccco2)cc(OC)c1O (centres unmarked),9.03
COc1ccnc(Cn2cnc(Cl)c2Cl)c1OC,73.7
CC1(C)CCN(C(=O)c2cc(C#N)cs2)c2cc(Br)ccc21,59.3
CCC(CC)C(=O)N(Cc1ccccc1)Cc1nc(N(C)C)ncc1-c1ccccn1,0.566
Cc1ccc2c(c1)c(=O)n(C)c1nnc(CNC(C)c3ncc(C)s3)n21 (centres unmarked),92.2
O=C(O)CCCN1C(=O)C2Cc3ccccc3CN2C1=O (centres unmarked),18.2
COCC(C)(O)CNS(=O)(=O)c1ccc(N2CCCCS2(=O)=O)cc1 (centres unmarked),> 100
NS(=O)(=O)c1ccc(CCNc2nc3c(S(=O)(=O)c4ccccc4)nnn3c3ccccc23)cc1,14.6
O=C(NCCc1ccccc1)Nc1cnc(O)nc1O,81.5

# Sample 2
# SMILES: C[C@H](NC(=O)Nc1cc2[nH]ncc2c(CO)n1)c1ccccn1
# Observed: cell-free assay
# Tested at: 10 µM
target,inhibition
"Histamine H4 receptor (HRH4, Homo sapiens, UniProt Q9H3N8)",41.9%
"Beta-2 adrenergic receptor (ADRB2, Homo sapiens, UniProt P07550)",-12.8%
"Muscarinic acetylcholine receptor M4 (CHRM4, Homo sapiens, UniProt P08173)",18.7%
"Alpha-1A adrenergic receptor (ADRA1A, Homo sapiens, UniProt P35348)",-8.5%
"Alpha-2C adrenergic receptor (ADRA2C, Homo sapiens, UniProt P18825)",11.5%
"Muscarinic acetylcholine receptor M5 (CHRM5, Homo sapiens, UniProt P08912)",7.22%
"5-hydroxytryptamine receptor 6 (HTR6, Homo sapiens, UniProt P50406)",-12.9%
"D(3) dopamine receptor (DRD3, Homo sapiens, UniProt P35462)",27.9%
"Sigma intracellular receptor 2 (TMEM97, Homo sapiens, UniProt Q5BJF2)",20.8%
"D(4) dopamine receptor (DRD4, Homo sapiens, UniProt P21917)",16.6%
"5-hydroxytryptamine receptor 7 (HTR7, Homo sapiens, UniProt P34969)",33.4%
"Histamine H2 receptor (HRH2, Homo sapiens, UniProt P25021)",3.05%
"Histamine H3 receptor (HRH3, Homo sapiens, UniProt Q9Y5N1)",21.1%
"Beta-3 adrenergic receptor (ADRB3, Homo sapiens, UniProt P13945)",13.6%
"Alpha-1D adrenergic receptor (ADRA1D, Homo sapiens, UniProt P25100)",-7.9%
"D(1A) dopamine receptor (DRD1, Homo sapiens, UniProt P21728)",4.28%
"Muscarinic acetylcholine receptor M2 (CHRM2, Homo sapiens, UniProt P08172)",14.1%
"Alpha-1B adrenergic receptor (ADRA1B, Homo sapiens, UniProt P35368)",1.42%
"Alpha-2B adrenergic receptor (ADRA2B, Homo sapiens, UniProt P18089)",-0.465%

# Sample 3
# Target: Beta-1 adrenergic receptor (ADRB1, Homo sapiens, UniProt P08588)
# Chain of UniProt P08588 (whole entry, looked up): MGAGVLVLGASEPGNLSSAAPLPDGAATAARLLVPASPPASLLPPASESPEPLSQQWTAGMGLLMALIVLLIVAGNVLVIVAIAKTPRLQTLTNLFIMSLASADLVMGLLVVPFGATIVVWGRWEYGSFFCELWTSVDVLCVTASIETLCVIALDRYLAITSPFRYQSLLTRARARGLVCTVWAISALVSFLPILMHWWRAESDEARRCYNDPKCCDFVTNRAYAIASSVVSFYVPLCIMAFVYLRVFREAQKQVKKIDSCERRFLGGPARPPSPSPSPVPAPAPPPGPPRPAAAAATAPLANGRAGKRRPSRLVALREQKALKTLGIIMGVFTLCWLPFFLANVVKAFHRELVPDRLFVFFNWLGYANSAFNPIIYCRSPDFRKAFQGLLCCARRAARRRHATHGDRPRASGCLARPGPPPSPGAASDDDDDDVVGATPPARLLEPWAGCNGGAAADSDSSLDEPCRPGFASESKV
# Action: antagonist
SMILES,IC50
COc1cc(CNCCC(C)C)ccc1OCC(O)CN1CCSCC1 (centres unmarked),≥ 100 µM
CC(C)CN1C(=O)COC[C@@H]1[C@H](O)c1ccc(NC(=O)CCc2ccccc2)cc1,≥ 100 µM
O=C(Nc1cccc(-n2cnnn2)c1)c1cc2c(F)cccc2s1,≥ 100 µM
Cc1cc2c(s1)c1cnn(Cc3c(F)ccc(C)c3Cl)c(=O)c1n2C,≥ 100 µM
COc1ccccc1-c1nc(N2CCOCC2)cc2c1CN(Cc1cnn(C)c1)C2=O,≥ 100 µM
COc1cc(-c2nccc3c(=O)cc(N(C)c4ccccc4)oc23)ccn1,≥ 100 µM
COc1ccc(CN[C@H]2[C@H](O)[C@@H](N3CCN(c4ccccc4OC)CC3)[C@@H]3OC[C@H]2O3)cc1,≥ 100 µM
COc1ccccc1N1CCN([S+](=O)([O-])N2CCC(C)C2)CC1 (centres unmarked),≥ 100 µM
COc1ccccc1N1CCN(CC[C@H]2CN(C(=O)NC(C)C)CC[C@H]2CC(=O)O)CC1,≥ 100 µM
CCN1CCN(Cc2ccc(Nc3ncc(F)c(-c4cc(F)c5nc(C)n(C(C)C)c5c4)n3)nc2)CC1,≥ 100 µM
C#CCNC(=O)[C@@H]1Cc2cn(CC#CC)c3cccc(c23)[C@H](CC(C)C)N1,≥ 100 µM

# Sample 4
# SMILES: C=CCc1ccc(O)c(-c2ccc(O)c(CC=C)c2)c1
# Observed: chloride current
# ANO1 del476-501: Anoctamin-1 (ANO1, Homo sapiens, UniProt Q5XXA6, del476-501)
# Chain of UniProt Q5XXA6 (whole entry, unmodified, looked up): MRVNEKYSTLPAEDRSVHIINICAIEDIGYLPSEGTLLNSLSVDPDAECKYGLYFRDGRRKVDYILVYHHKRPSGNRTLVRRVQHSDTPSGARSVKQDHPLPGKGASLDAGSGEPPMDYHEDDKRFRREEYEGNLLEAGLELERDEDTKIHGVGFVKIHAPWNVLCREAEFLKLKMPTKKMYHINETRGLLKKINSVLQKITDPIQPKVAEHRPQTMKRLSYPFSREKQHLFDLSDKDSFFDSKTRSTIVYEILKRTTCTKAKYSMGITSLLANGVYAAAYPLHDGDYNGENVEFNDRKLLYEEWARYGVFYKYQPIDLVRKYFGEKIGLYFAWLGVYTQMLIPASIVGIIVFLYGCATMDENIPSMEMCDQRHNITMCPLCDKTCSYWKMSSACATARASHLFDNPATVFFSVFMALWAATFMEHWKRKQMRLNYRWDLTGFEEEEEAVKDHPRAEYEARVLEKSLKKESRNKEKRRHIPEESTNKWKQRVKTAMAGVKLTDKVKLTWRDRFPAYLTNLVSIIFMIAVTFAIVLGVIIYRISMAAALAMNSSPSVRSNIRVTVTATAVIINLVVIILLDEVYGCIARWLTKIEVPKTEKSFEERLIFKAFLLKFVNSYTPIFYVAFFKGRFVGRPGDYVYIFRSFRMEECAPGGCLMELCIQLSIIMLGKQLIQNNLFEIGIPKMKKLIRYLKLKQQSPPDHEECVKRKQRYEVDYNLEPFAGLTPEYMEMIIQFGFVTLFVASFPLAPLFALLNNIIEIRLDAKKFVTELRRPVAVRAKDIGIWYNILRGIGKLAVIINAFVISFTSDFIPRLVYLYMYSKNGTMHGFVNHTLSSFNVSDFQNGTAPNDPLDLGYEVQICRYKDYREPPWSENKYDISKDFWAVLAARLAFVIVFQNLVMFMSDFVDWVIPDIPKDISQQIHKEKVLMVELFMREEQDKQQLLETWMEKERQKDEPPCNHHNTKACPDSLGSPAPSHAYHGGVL
# ANO1 del476-501/F628A: Anoctamin-1 (ANO1, Homo sapiens, UniProt Q5XXA6, del476-501/F628A)
target,action,technique,tested at,notes,added,normalized current
ANO1 del476-501,,whole-cell voltage clamp,30 µM,"wild type, I-V at -40 mV",4 µM Ca2+,-0.0279
ANO1 del476-501/F628A,,whole-cell voltage clamp,10 µM,I-V at -60 mV,4 µM Ca2+,-0.366
ANO1 del476-501,,whole-cell voltage clamp,30 µM,"wild type, I-V at 60 mV",4 µM Ca2+,0.0389
ANO1 del476-501,,whole-cell voltage clamp,1 µM,"wild type, I-V at 40 mV",4 µM Ca2+,0.376
ANO1 del476-501/F628A,,whole-cell voltage clamp,100 µM,I-V at 100 mV,4 µM Ca2+,0.292
"Anoctamin-1 (ANO1, Homo sapiens, UniProt Q5XXA6, del476-501/N435G)",inhibitor,whole-cell voltage clamp,concentration not given,N435G mutant,,0.374 and 0.497 and 0.361 and 0.413 and 0.388 and 0.395 and 0.403
"Anoctamin-1 (ANO1, Homo sapiens, UniProt Q5XXA6)",,inside-out patch clamp,10 µM,membrane voltage 60 mV,,0.471
"Anoctamin-1 (ANO1, Homo sapiens, UniProt Q5XXA6, del476-501/E649A/R541A)",,inside-out patch clamp,10 µM,membrane voltage 20 mV,,0.0923
